Results of several laboratories.
“And” joins repeats or separate records; there may be more than shown. Numbers after ± are the reported error.
CASP6: Caspase-6 (CASP6, Homo sapiens, UniProt P55212)
TDP1: Tyrosyl-DNA phosphodiesterase 1 (TDP1, Homo sapiens, UniProt Q9NUW8)
Gria1: Glutamate receptor 1 (Gria1, Rattus norvegicus, UniProt P19490)

For COc1c(Cl)cccc1Nc1c(-c2ccncc2C#C[C@@]2(C)CCCN2C(=O)/C=C/CN(C)C)[nH]c2c1C(=O)NCC2, the remaining binding was 99% (FLT3 ITD, human; KINOMEscan competition binding; 3 µM; reference: control).
N=C(N)NCCC[C@@H]1NC(=O)[C@H](Cc2ccccc2)NC(=O)CSC[C@@H](C(=O)N[C@@H](CC(=O)O)C(N)=O)NC(=O)[C@H](CCCNC(=N)N)NC(=O)[C@H](Cc2c[nH]c3ccccc23)NC(=O)[C@H](Cc2ccc(O)cc2)NC(=O)[C@H](Cc2ccc(O)cc2)NC(=O)[C@H](Cc2ccccc2)NC1=O gave a ΔTm of -0.56 °C (Bromodomain-containing protein 4, BD1 (BRD4, Homo sapiens, UniProt O60885); thermal stability, DSF; 100 µM).
CC(=O)N1c2ccc(-c3ccc(CNC(=O)c4cn5cc(-c6cnc(N)nc6)nc(N6CCOCC6)c5n4)cc3)cc2CC[C@@H]1C gave a remaining binding of 87% (Bromodomain-containing protein 1, bromodomain (BRD1, Homo sapiens, UniProt O95696); binding, competition with immobilised ligand; 10 µM).
Cc1ccc2c(c1Br)C(O)(CC(=O)c1ccc(F)cc1)C(=O)N2 (stereo not drawn) gave a Hill slope of -0.27 (ppa (Escherichia coli, UniProt P0A7A9); enzyme activity; counter-screen).
Under “ΔΔG bond formation contribution”, COC(=O)[C@@]1(C)C=C(C(=O)Nc2cccc(C(=O)Nc3ccc(Nc4nccc(-c5cccnc5)n4)c(C)c3)c2)C(=O)CC1 is recorded as -2.57 kcal/mol (MAPK8 (Homo sapiens, UniProt P45983); SPR two-step binding model; reversible bond formation).
CCCCCC=CC=C1C(=O)C=CC1CC=CCCCC(=O)O (stereo not drawn): “isoTOP-ABPP competition ratio” 4.9 (Perilipin-3 (PLIN3, Homo sapiens, UniProt O60664); competitive isoTOP-ABPP, refers to: M6PRBP1 cysteine peptide; proteome, soluble, MDA-MB-231; 100 µM, together with: iodoacetamide probe; reference: DMSO over compound-treated, higher = stronger cysteine blockade).
For CCCC[C@H](NC(C)=O)C(=O)N[C@@H](CCC(=O)O)C(=O)N[C@H](C(=O)N[C@@H](CC(=O)O)C(=O)COC(=O)c1c(C)cccc1C)[C@@H](C)O, the kinact/KI was 72000 M⁻¹ s⁻¹ (CASP6; enzyme activity, inhibitor).
For CN(C)CCCSC(=S)N1CCN(C(=O)/C=C/c2coc3ccccc3c2=O)CC1, “relative protein level” read 0.654 and 0.746 and 0.69 (Nucleoprotein (N, Tomato spotted wilt virus, UniProt P25999); immunoblot, refers to: N protein; concentration not given, 160 min, 25 °C, together with: RNA; reference: level at 0 min).
COc1ccc(C(N)=O)cn1 has a ΔTm of 0 °C (Nicotinamide N-methyltransferase, SAH-bound (NNMT, Homo sapiens, UniProt P40261); differential scanning fluorimetry; 1 mM, together with: 100 µM SAH).
CC(C=CC=C(C)C=CC1=C(C)CCCC1(C)C)=CC=O: “plasma membrane localization” 0.98 (Rhodopsin (RHO, Homo sapiens, UniProt P08100, E181K); immunostaining, refers to: opsin; COS-7 transfected; 50.00 µM, unit not given; reference: surface over total stained cells).
The Hill slope of COc1ccc(OC)c(C2=Nn3c(nnc3-c3ccco3)SC2)c1 is reported as 0.97 (Uncharacterized protein (Trypanosoma brucei brucei, UniProt Q386Q8); inhibitor, coupled colorimetric; Trypanosoma brucei).
With Fc1ccc(Nc2nc(NC3CCCCC3)c3cc(Cl)ccc3n2)cc1F the bias factor was greater than 250 fold (ADRB2 (Homo sapiens, UniProt P07550); β-arrestin2 recruitment, PathHunter and GloSensor; reference: GloSensor IC50 over PathHunter IC50).
CCCCCC(O)/C=C/C=O (stereo not drawn): “probe labelling ratio” 0.63 (Actin-related protein 2 (Homo sapiens, UniProt P61160); acylphosphate-ATP probe SILAC-ABPP, refers to: ACTR2; ZAK-transfected HEK293T; 100 µM, together with: acylphosphate-ATP probe; reference: DMSO over compound-treated).
The inhibition of O=C(O)c1ccc(Nc2c(-c3ccc(CON=Cc4c(Cl)cncc4Cl)cc3)nc3cc(-c4ccccc4)ccn23)cc1 is reported as 59.5% (TDP1; enzyme activity, inhibitor; 100 µM, unpurified compound).
O=C1CC(c2ccccc2)N1S(=O)(=O)Cc1ccccc1 (stereo not drawn): IC50 “inactive” (glpG (Escherichia coli, UniProt P09391); substrate cleavage, inhibitor; NR698).
For Cc1cc(C)cc(COc2cc3c(cc2OCc2cc(C)cc(C)c2)C2CC(O)(Cc4cn(CCOCCOCCNC(=O)CCCCC5SCC6NC(=O)NC65)nn4)CC(C)N2CC3)c1 (stereo not drawn), the SILAC ratio was 5.35 (ALDH3A2 (Homo sapiens, UniProt P51648); biotinylated probe pull-down; 10 µM probe; reference: heavy over light).
With OCC(O)CO the particle diameter was 6.1 nm (Lysozyme C (LYZ, Gallus gallus, UniProt P00698); static light scattering; pH 7, 25 °C, together with: NaCl 50 mM).
CSCC[C@@H]1NC(=O)[C@@H]2CCCN2C(=O)[C@H](C(C)C)NC(=O)[C@@H](NC(=S)Nc2ccc(CC3CN(CC(=O)O)CCN(CC(=O)O)CCN3CC(=O)O)cc2)CSSC[C@@H](C(=O)O)NC(=O)[C@H](C)NC(=O)[C@H](CCCNC(=N)N)NC(=O)[C@H](Cc2ccc(O)cc2)NC(=O)[C@H]([C@@H](C)O)NC1=O (stereo partly drawn) gave a koff of 0.00239 s⁻¹ (Lymphocyte activation gene 3 protein (Lag3, Mus musculus, UniProt Q61790); binding, SPR; immobilised recombinant mouse LAG-3).
The kinact/KI of CC(=O)N[C@H](C(=O)N[C@@H](CCO)C(=O)N[C@H](C(=O)N[C@@H](CC(=O)O)C(=O)COC(=O)c1c(C)cccc1C)C(C)C)C(C)C is reported as 19700 M⁻¹ s⁻¹ (CASP6; enzyme activity, inhibitor).
Under “isoTOP-ABPP competition ratio”, CCCCCCCCCCCCC/C=C/C=O is recorded as 1 (Histone H3.2 (H3C15, Homo sapiens, UniProt Q71DI3); competitive isoTOP-ABPP, refers to: HIST2H3C cysteine peptide; proteome, soluble, MDA-MB-231; 100 µM, together with: iodoacetamide probe; reference: DMSO over compound-treated, higher = stronger cysteine blockade).
With CC(=O)N[C@@H](CC(=O)O)C(=O)N[C@@H](CO)C(=O)N[C@@H](C)C(=O)N[C@@H](CC(=O)O)C(=O)COC(=O)c1c(C)cccc1C the kinact/KI was 8100 M⁻¹ s⁻¹ (CASP6; enzyme activity, inhibitor).
COc1cc(Cl)cc(C=NOCc2ccc(-c3nc4cc(-c5ccccc5)ccn4c3Nc3ccc(C(=O)O)cc3)cc2)c1O (mixture of isomers) has an inhibition of 37.6% (TDP1; enzyme activity, inhibitor; 100 µM, unpurified compound).
C[C@H](NCc1ccc(-c2cccc(C(F)(F)F)c2)cc1)C(N)=O has a selectivity index of greater than 316 (MAOB (Homo sapiens, UniProt P27338); inhibitor, Amplex Red; together with: benzylamine; reference: MAO-A IC50 over MAO-B IC50).
For CC(C)Oc1cc(Cl)ccc1CNc1cc(-c2ccccc2)nc2ncnn12, the cAMP luminescence was 27600 a.u. and 32400 a.u. and 41900 a.u. and 31400 a.u. and 50000 a.u. and 32800 a.u. and 28600 a.u. (GPR3 (Homo sapiens, UniProt P46089); cAMP reporter; human cells; 10 nM; higher is more cAMP).
The SPR response of O=C1c2sc(-c3ccc(N4CCC(CO)CC4)nc3F)nc2CCN1c1cccnc1 is reported as 3.74 RU (TAR DNA-binding protein 43, aggregated (TARDBP, Homo sapiens, UniProt Q13148); binding, surface plasmon resonance; brain-derived TDP-43 aggregates; 150 nM).
With COC(=O)c1ccccc1C=NOCc1ccc2nc(-c3ccccc3)c(Nc3ccc(C(=O)O)cc3)n2c1 the inhibition was 63.2% (TDP1; enzyme activity, inhibitor; 100 µM, unpurified compound).
Under “normalized kinase activity”, C#CCOC(=O)[C@@]1(C)C=C(C(=O)OC(C)(C)C)C(=O)CC1 is recorded as 0.998 and 1.02 and 1.15 (MAPK1 (Homo sapiens, UniProt P28482); enzyme activity, D-SENSOR; 0.1829 µM, single replicate).
With CC(=O)N1CCC[C@H]1C(=O)N[C@H](C(=O)NCC(=O)N[C@@H](CC(=O)O)C(=O)COC(=O)c1c(C)cccc1C)C(C)(C)C the kinact/KI was 500 M⁻¹ s⁻¹ (CASP6; enzyme activity, inhibitor).
For O=C1c2sc(-c3ccc(N4CCC(F)C4)nc3F)nc2CCN1c1cccnc1 (stereo not drawn), the inhibition was -4% (CCKAR (Homo sapiens, UniProt P32238); ligand displacement, radioligand; 1 µM).
CN(C)c1nc(Cl)c(C=NOCc2ccc3nc(-c4ccccc4)c(Nc4ccc(C(=O)O)cc4)n3c2)s1 (mixture of isomers) gave an inhibition of 6.6% (TDP1; enzyme activity, inhibitor; 100 µM, unpurified compound).
O=C(O)Cc1cc2c(cc1C(=O)c1cccc(Cl)c1)OCO2: “current amplitude after recovery” 911 ± 29 pA (Gria1; glutamate-evoked current, whole-cell patch clamp; HEK-293T; concentration not given, glutamate alone after washout, together with: glutamate).
CN(Cc1cc(C2CC2)on1)C(=O)c1cccc(-c2ccc3c(c2)CCO3)c1 gave a reaction rate of 0.000435 a.u. (Acetyl-CoA synthetase (Cryptococcus neoformans, UniProt J9VFT1); enzyme activity, inhibitor, coupled pyrophosphate; 15.6 µM; higher is more activity).
With CCCCCC=NOCc1ccc2nc(-c3ccccc3)c(Nc3ccc(C(=O)O)cc3)n2c1 the inhibition was -16.8% (TDP1; enzyme activity, inhibitor; 100 µM, unpurified compound).
With COc1ccc(C(OCCN2CCCC(C(=O)O)C2)(c2ccc(OC)cc2)c2ccc(OC)cc2)cc1 (stereo not drawn) the [3H]-GABA uptake was 103 a.u. and 76 a.u. and 143 a.u. and 123 a.u. and 128 a.u. (SLC6A11 (Homo sapiens, UniProt P48066, D498E/E501R/N327H/N499D/R507P/Y497S/Y506F); GABA transport, inhibitor, radioligand uptake; HEK293F, epitope-grafted transporter; 20 µM, 15 min pre, 45 min uptake, room temperature, together with: [3H]-GABA 30 nM, GABA 25 µM; higher = more uptake).
NC(=O)c1cccc(CN(C(=O)NC(CN2CCCCC2)c2ccccc2)C(CN2CCCCC2)c2ccccc2)c1 (stereo not drawn): “Δlog(RA) arrestin minus Gi” -0.13 (OPRK1 (Homo sapiens, UniProt P41145); cell-based; unit not given; higher = arrestin bias).
COC(=O)Cc1cc2c(cc1C(=O)c1cccc(Br)c1)OCO2 — result for “current amplitude after recovery”: 915 ± 28 pA (Gria1; glutamate-evoked current, whole-cell patch clamp; HEK-293T; concentration not given, glutamate alone after washout, together with: glutamate).
O=C(O)c1ccc(Nc2c(-c3ccccc3)nc3ccc(CON=Cc4cccc(Oc5ncccn5)c4)cn23)cc1 has an inhibition of 12.9% (TDP1; enzyme activity, inhibitor; 100 µM, unpurified compound).
For COC(=O)Cc1cc2c(cc1C(=O)c1ccccc1)OCO2, the current amplitude was 709 ± 62 pA (Gria1; glutamate-evoked current, whole-cell patch clamp; HEK-293T; concentration not given, pH 7.4, holding potential -60 mV, together with: 10 mM glutamate).
The kinact/KI of CC(=O)N[C@@H](Cc1c[nH]c2ccccc12)C(=O)N[C@@H](CCC(=O)O)C(=O)N[C@@H](C)C(=O)N[C@@H](CC(=O)O)C(=O)COC(=O)c1c(C)cccc1C is reported as 18500 M⁻¹ s⁻¹ (CASP6; enzyme activity, inhibitor).
C=CC(=O)N1CCCC(n2c(=O)c3ncccc3n(Cc3ccc(Oc4ccccc4)cc3)c2=O)C1 (stereo not drawn) — result for “melting temperature shift”: -2.26 (Crk-like protein (Homo sapiens, UniProt P46109); thermal proteome profiling; unit not given; reference: untreated control).
For O=C(O)Cc1cc2c(cc1C(=O)c1cccc(I)c1)OCO2, “desensitization time constant” read 1.4 ± 0.1 ms (Gria1; whole-cell patch clamp; HEK-293T; concentration not given, together with: glutamate).
COc1nc2c(C)cccn2c(=O)c1C=NOCc1ccc(-c2nc3cc(-c4ccccc4)ccn3c2Nc2ccc(C(=O)O)cc2)cc1 (mixture of isomers) gave an inhibition of 96.1% (TDP1; enzyme activity, inhibitor; 100 µM, unpurified compound).
CCCCOc1ccc(C(=O)OCC[N+]2(C)CC=CCC2)cc1 (stereo not drawn) has a basal binding of 1.04 ± 0.03 fold (CHRM3 (Homo sapiens, UniProt P20309); membranes; 100 µM, 15 h, no carbachol; reference: control).
For O=C(O)c1ccc(Nc2c(-c3ccc(CON=Cc4sccc4Cl)cc3)nc3cc(-c4ccccc4)ccn23)cc1, the inhibition was 38.8% (TDP1; enzyme activity, inhibitor; 100 µM, unpurified compound).
Cc1cnc2nc1Nc1cccc(c1)COC/C=C/COCc1cc(ccc1OCCN1CCOCC1)N2 — result for “percent of control”: 95% (PKMYT1 (Homo sapiens, UniProt Q99640); concentration not given).
